Measured values of several laboratories.
Each numbered part is a random draw from the data of one study; scales do not carry over between parts. Changes are numbered by the printed parent chain.
Sequence of UniProt P23975 (whole entry, looked up): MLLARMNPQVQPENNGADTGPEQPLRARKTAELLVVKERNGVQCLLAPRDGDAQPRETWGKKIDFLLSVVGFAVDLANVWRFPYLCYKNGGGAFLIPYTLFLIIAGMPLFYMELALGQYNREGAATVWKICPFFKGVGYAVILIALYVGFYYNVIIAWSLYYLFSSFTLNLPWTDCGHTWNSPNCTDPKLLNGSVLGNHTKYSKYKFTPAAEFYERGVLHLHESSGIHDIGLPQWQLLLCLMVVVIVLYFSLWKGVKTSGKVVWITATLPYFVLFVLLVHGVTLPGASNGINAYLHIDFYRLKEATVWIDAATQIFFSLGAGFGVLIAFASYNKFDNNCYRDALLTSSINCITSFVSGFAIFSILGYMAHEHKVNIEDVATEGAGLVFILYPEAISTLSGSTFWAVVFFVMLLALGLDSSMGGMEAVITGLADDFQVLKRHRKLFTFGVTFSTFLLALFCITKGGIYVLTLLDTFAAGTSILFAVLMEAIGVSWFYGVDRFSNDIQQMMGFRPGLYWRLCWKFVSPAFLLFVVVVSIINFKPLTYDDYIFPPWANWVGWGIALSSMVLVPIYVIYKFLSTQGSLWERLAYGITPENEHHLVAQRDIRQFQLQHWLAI
Sequence of UniProt P11229 (whole entry, looked up): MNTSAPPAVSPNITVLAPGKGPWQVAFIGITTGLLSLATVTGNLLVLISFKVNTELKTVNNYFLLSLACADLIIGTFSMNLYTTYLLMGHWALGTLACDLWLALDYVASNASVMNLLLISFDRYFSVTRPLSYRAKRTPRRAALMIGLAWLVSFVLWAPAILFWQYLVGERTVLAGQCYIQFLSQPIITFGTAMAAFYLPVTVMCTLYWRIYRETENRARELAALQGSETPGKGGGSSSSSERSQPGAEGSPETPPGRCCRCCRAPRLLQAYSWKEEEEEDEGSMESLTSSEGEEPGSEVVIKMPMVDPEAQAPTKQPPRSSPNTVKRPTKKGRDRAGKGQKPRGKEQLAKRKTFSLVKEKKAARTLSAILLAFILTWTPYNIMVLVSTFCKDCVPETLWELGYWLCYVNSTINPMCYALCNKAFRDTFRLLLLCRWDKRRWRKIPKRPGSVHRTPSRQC

Study 1 — concentration: 10 µM
Structure (SMILES): CNCc1ccccc1-c1csc([C@@H](C)Nc2nc(C)nc3cc(OC)c(OC)cc23)c1
target	read-out	method	inhibition [%]
SLC6A2 (Homo sapiens, UniProt P23975)	binding	radioligand binding	84
SLC6A4 (Homo sapiens, UniProt P31645)	binding	radioligand binding	47.4
CHRM1 (Homo sapiens, UniProt P11229)	cell-free assay		88.8

Study 2 — read-out: peptide-MHC binding; form: peptide; concentration: concentration not given
Target: HLA class I histocompatibility antigen, C alpha chain, allele C*04:01 (Homo sapiens, UniProt P10321)
Sequence	binding
MPMKGRFPI	inactive
LFPELECFF	inactive
YEHYFVFAA	inactive

Study 3 — method: EMSA with sequencing; form: double-stranded DNA, one strand shown; medium: in vitro; concentration: 10 and 20 nM; reference: negative control set to 0; direction: higher = stronger binding
Target: Hepatocyte nuclear factor 3-alpha (Foxa1, Mus musculus, UniProt P35582, residues 1-468, full length assumed)
Notes: whole designed probe, mean of two concentrations, ends assumed
Shared flanks, not repeated: GTGAGCGGTGCCCATTGATGGGGAAC … TTTCACTGGGATCGTGGGGAC
Residues (chain): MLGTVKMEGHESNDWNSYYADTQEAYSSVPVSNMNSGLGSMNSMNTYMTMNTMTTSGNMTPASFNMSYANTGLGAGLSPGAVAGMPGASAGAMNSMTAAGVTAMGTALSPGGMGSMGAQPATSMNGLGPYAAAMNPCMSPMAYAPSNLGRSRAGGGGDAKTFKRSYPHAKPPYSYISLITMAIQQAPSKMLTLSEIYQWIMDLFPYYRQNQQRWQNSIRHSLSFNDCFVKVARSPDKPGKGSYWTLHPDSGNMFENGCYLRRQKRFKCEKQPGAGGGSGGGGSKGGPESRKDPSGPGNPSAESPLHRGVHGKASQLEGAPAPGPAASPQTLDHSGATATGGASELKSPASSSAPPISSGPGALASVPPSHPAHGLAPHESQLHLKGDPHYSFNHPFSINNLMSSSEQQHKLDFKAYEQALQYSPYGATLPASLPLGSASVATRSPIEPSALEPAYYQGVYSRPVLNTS
Oligonucleotide	normalised bound fraction
AACAAGGCCCAAATTTTAATTATGCAGGAGGTTAATAGTCACACAGATGACTTTCCGGTAAGATAAACAGTGAAAACTTGGCAAATGCTAATGTAATTTACTCCCCCCTCCTGCCCTCTCATTCCTGAAAATTGTACTCATTCTTGCAGAGTTCATATATGAGAACAGGGTATCCTAACCTAGTTAGAAGCAC	0.085 ratio
TTCCTATCAGGCGAAGGCCGCCTTTCCTGGCCTCCCCCACAGGCCCGCCAGCGATTCGTCCTTACAAGGCTAGCCTCCACGGGCTGCCCTCTGTGTAAATAAAGCCACAGACTTCCGCCCACAGGTCGCCGCAGGTCCCGCCCGCAGCGCCGGGCCGCGGGGGAGGCGGGAACTGGTGCTACGGCCGCTACGC	0.469 ratio
ATCTTCCCCCTCTTCCTTGCCCCACCAGCTCACCTACGGGGGTTATTTGCACAAAGGAAAATAAATAAAGCCGGCATTCGTTAACGCAGTTCACGCGCATACTGCTGTTTGCTCTGCATCTAACATGGTCCTTACGCGAGGCGTGGCTCCGGGAGAGCAAAGCACCGTGTCAGGCGCATGATCCGGGCTCGCC	0.403 ratio
ATCTTCCCCCTCTTCCTTGCCCCACCAGCTCACCTACGGGGGTTATTTGCAGATAGGAAAATAAATAAAGCCGGCATTCGTTAACCCTCTTCTGGCGCAAACTGCTGTTTGCTCTGGATGAATCATGGTCCTTTGGCGAGGCGTGGCTCCGGGAGAGCAAAGCACCGTGTCAGGGCCATGATCCGGGCTCGCC	0.335 ratio
ATACAGCCTAGAACTCCTGGGCTCAAAAGATCCTCCCACCTCAGCCTCCTGAGTAGCTAGGACTACAGAGGCGCATGCCAACATGTGTGGCAAAAATTACTAAATTATTTAGAAAAGAGGTCTCGCTTTGTTGCCCAGGCTAGTGTGCAGTGGCGCAATCTTGGCTCACTGCAACCTCTTCCTCCCAAGTTCA	-0.026 ratio

Study 4 — method: DHFR PCA, deep sequencing; medium: yeast; added: (+)-ABA 710 µM; reference: wild-type fitted maximum; direction: higher = stronger binding
Target: ABI1, truncated, D143A, DHFR fusion (Arabidopsis thaliana)
Notes: methotrexate growth selection, single substitutions
Parent: PYL1, truncated, DHFR fusion (Arabidopsis thaliana); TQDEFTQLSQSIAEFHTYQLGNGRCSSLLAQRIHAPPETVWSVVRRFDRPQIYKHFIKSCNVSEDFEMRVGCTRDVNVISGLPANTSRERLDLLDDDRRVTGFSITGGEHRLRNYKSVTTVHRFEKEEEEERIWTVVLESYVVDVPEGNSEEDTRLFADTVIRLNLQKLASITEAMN; partner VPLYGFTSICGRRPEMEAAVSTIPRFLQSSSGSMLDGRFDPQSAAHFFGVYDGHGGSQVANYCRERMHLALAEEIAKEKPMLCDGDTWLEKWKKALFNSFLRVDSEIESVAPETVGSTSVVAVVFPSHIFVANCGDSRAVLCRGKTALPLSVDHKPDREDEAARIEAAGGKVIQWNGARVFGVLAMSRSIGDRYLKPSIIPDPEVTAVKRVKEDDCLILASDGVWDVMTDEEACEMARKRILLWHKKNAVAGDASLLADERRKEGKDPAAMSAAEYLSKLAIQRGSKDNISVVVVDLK
Substitution	relative binding score [%]
E67Y	97.8
L169W	-6.71
I162H	37.8
I57D	-1.67
H122D	89.8
D65F	98
V70K	93.8
R46V	92.2

Study 5 — target: CCNA1, cyclin fold, Cln2 fusion (human); method: yeast growth competition, sequencing; medium: yeast; notes: strong parent motif; reference: not given; direction: higher = stronger binding
Parent: viral docking peptide; TSVRRALFTGGSD; partner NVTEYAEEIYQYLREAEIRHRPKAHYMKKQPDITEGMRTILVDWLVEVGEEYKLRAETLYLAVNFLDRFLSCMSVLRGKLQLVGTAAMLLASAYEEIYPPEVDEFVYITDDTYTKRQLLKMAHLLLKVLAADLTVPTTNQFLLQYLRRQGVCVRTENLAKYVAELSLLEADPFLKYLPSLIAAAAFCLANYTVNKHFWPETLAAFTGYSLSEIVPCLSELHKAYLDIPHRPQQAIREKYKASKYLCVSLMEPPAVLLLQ
Substitution	normalised enrichment score
TSKRRALFTGGSD [V3K]	0.178
TSVRKALFTGGSD [R5K]	0.518
TSVSRALFTGGSD [R4S]	0.579
TSVRRALFTNGSD [G10N]	1.27
TSVMRALFTGGSD [R4M]	0.298
TAVRRALFTGGSD [S2A]	0.712
TSVRRALFTFGSD [G10F]	0.608
TWVRRALFTGGSD [S2W]	-0.197
TSVRRALFNGGSD [T9N]	0.953
TSVQRALFTGGSD [R4Q]	0.0151
TSVRRALFTGGLD [S12L]	0.675
TSVGRALFTGGSD [R4G]	-0.772
TSVRRKLFTGGSD [A6K]	0.747
TSVRRSLFTGGSD [A6S]	0.65
TYVRRALFTGGSD [S2Y]	0.718
TSVRRAMFTGGSD [L7M]	0.355
TSVRYALFTGGSD [R5Y]	0.165
TSVRRALFTPGSD [G10P]	1.28

A few entries again (study 5):
Substitution	normalised enrichment score
TSVRRALFTGGLD [S12L]	0.675
TSVGRALFTGGSD [R4G]	-0.772
TSVRRKLFTGGSD [A6K]	0.747
TSVRRSLFTGGSD [A6S]	0.65
